Experimental data of several laboratories.
Each line is one published result; not all experiments were run side by side. “And” joins repeats or separate records; there may be more than shown. ± marks the error that the study gave.
DCPS: m7GpppX diphosphatase (DCPS, Homo sapiens, UniProt Q96C86)
UniProt Q96C86, sequence (whole entry, looked up): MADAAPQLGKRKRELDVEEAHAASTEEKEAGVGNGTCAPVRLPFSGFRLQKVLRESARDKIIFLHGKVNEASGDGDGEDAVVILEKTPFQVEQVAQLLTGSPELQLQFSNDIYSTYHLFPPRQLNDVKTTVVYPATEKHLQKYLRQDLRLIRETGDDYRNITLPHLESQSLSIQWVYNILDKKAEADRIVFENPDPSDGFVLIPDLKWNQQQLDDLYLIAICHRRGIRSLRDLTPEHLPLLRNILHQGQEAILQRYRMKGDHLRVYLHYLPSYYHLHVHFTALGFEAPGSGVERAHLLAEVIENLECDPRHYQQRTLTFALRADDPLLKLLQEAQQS
CASP8: Caspase-8 (CASP8, Homo sapiens, UniProt Q14790)
UniProt Q14790, sequence (whole entry, looked up): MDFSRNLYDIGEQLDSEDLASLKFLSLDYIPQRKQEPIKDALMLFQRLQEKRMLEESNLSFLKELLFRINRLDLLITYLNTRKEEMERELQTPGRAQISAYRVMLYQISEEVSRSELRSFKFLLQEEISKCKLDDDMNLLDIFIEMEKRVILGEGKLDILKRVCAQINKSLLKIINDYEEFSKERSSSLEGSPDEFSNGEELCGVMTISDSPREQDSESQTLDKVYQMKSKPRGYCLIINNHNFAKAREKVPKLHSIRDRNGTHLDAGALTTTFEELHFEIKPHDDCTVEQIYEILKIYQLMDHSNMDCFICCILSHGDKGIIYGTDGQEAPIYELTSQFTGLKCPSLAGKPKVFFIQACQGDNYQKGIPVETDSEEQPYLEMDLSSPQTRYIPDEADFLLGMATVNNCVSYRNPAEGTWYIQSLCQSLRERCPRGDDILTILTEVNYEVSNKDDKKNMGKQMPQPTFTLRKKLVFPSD
MAPK8: Mitogen-activated protein kinase 8 (MAPK8, Homo sapiens, UniProt P45983)
UniProt P45983, sequence (whole entry, looked up): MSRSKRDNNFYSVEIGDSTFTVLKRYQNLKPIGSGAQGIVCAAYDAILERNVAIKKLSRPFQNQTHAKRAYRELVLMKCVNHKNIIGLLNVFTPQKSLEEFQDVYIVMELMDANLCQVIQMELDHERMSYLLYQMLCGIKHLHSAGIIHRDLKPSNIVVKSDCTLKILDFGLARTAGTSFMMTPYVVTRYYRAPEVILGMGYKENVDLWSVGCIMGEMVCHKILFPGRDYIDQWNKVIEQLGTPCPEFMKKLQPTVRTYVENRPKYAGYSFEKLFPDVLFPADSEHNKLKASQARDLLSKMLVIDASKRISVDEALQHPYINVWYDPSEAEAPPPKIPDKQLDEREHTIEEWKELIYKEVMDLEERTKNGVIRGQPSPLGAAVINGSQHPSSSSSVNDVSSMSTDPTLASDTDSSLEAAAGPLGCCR
PTPN11: Tyrosine-protein phosphatase non-receptor type 11 (PTPN11, Homo sapiens, UniProt Q06124)
UniProt P09874, sequence (whole entry, looked up): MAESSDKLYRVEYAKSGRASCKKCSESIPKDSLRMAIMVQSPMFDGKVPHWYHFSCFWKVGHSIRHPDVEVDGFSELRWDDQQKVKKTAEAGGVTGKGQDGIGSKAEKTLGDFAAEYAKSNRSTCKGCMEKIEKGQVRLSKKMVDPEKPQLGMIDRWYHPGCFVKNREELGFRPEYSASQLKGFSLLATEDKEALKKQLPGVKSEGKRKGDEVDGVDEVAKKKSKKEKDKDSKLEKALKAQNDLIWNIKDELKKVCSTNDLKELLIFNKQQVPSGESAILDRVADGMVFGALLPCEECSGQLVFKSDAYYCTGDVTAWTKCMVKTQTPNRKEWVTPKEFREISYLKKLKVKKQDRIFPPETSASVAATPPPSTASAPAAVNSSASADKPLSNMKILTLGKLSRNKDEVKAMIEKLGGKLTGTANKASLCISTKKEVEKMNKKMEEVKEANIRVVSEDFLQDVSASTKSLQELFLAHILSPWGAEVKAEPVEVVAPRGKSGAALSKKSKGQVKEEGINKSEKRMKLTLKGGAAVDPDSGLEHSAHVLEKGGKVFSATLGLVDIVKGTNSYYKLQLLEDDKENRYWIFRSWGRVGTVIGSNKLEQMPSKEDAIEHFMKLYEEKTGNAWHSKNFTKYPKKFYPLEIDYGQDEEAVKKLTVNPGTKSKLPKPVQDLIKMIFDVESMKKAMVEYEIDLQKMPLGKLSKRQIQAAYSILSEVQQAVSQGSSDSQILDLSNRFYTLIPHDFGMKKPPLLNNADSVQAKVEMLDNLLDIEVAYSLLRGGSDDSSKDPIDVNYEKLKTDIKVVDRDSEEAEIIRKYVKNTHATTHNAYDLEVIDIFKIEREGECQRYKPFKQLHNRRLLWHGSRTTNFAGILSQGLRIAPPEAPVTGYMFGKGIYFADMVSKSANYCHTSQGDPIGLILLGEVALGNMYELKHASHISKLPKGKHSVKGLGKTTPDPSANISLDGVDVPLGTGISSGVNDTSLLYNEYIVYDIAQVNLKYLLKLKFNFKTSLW
UniProt P08191, sequence (whole entry, unmodified, looked up): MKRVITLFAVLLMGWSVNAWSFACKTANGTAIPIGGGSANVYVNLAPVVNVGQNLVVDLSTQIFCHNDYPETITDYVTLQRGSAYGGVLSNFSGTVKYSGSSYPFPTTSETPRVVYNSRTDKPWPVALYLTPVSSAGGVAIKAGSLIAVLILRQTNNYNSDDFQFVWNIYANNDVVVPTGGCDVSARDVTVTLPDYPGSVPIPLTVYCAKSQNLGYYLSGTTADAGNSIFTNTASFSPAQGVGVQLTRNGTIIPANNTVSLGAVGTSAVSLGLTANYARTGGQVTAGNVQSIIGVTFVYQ
UniProt P02466, sequence (whole entry, looked up): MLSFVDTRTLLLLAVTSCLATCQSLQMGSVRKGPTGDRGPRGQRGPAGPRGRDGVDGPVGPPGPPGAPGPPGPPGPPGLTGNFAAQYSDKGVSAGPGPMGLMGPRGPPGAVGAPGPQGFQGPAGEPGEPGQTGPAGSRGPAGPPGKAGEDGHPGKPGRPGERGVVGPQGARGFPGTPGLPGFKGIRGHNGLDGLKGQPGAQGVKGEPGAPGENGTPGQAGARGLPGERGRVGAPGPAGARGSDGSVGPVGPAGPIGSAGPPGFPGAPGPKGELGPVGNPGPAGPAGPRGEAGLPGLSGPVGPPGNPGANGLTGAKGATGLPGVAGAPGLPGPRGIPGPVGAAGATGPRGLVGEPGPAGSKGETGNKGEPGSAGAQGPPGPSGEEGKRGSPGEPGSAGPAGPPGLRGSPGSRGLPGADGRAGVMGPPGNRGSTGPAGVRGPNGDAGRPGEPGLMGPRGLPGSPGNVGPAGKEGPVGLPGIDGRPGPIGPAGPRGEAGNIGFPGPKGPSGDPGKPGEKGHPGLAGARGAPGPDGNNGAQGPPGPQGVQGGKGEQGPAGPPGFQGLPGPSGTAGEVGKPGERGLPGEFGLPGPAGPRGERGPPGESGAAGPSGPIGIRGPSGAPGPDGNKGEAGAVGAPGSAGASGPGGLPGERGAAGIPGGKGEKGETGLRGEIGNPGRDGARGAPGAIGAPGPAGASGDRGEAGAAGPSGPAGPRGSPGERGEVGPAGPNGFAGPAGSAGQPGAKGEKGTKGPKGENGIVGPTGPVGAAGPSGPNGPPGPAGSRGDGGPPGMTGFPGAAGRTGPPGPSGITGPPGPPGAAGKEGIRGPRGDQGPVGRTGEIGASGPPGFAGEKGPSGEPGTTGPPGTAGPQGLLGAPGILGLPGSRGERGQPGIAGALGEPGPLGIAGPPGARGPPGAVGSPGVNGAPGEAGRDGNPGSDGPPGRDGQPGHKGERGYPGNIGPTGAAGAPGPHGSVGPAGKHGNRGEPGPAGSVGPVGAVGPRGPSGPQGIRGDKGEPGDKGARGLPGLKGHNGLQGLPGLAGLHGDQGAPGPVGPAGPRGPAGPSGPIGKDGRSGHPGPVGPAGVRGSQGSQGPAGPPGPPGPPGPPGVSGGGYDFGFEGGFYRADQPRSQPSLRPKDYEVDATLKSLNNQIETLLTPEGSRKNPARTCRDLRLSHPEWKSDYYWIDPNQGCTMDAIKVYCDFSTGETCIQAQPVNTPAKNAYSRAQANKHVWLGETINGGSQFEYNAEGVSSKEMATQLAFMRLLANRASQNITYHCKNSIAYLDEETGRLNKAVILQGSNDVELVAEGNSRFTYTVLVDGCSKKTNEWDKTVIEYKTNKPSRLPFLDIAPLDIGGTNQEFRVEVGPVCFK
UniProt Q9Y4E8, sequence (whole entry, looked up): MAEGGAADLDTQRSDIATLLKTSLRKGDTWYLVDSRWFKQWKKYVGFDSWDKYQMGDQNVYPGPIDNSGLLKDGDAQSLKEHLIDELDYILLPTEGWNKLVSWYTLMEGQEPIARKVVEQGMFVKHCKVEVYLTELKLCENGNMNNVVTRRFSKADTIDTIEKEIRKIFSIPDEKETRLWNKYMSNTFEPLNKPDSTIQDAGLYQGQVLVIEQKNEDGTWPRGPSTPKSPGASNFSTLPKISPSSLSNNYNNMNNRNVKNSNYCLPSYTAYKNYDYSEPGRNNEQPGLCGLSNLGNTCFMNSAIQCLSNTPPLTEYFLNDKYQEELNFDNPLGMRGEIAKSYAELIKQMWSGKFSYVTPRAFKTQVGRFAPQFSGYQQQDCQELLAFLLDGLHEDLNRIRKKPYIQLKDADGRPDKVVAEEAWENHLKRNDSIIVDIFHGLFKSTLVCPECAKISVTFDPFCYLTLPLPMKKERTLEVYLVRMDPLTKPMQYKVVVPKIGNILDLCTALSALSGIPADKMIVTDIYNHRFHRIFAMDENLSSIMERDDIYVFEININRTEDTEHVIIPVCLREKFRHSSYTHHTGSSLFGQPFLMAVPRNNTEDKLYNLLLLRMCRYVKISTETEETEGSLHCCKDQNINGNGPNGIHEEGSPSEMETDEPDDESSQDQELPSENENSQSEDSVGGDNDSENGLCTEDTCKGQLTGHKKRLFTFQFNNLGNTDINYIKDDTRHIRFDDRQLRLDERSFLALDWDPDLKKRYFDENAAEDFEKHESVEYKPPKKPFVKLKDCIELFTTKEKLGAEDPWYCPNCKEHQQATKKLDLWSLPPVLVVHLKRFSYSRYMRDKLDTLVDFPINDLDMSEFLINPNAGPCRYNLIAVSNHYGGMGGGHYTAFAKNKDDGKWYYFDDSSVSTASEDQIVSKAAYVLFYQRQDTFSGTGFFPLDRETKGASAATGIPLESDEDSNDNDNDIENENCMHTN

Compound	tested on	assay	test system	conditions	how to read	measurement	value
CC(C)[C@@H]1NC(=O)[C@H](Cc2ccccc2)NC(=O)CSC[C@@H](C(N)=O)NC(=O)[C@H](CCC(=O)O)NC(=O)[C@H](CO)NC(=O)[C@H](Cc2c[nH]c3cccc(Cl)c23)NC(=O)[C@H](C2CCCCC2)NC(=O)[C@H](C(C)C)NC(=O)[C@H](Cc2ccc(O)cc2)NC(=O)[C@H](CC(=O)O)NC(=O)[C@H](Cc2c[nH]c3ccccc23)NC(=O)[C@H](Cc2ccc(N)nc2)NC(=O)[C@H](Cc2c[nH]c3ccc(Cl)cc23)NC(=O)[C@H](CCC(=O)O)NC1=O	Interleukin-1 receptor-like 2 (IL1RL2, Homo sapiens, UniProt Q9HB29)	reporter gene (SEAP), inhibitor, HEK-Blue IL-36R reporter	HEK-Blue IL-36R cells	0.046 µM, 6 h, added: IL-36γ 0.01 ng/mL		remaining activity	28.3%
C[n+]1cn(C2OC(COP(=O)(O)OP(=O)([O-])C(F)(F)P(=O)(O)OP(=O)(O)OCC3OC(n4cnc5c(=O)[nH]c(N)nc54)C(O)C3O)C(O)C2O)c2nc(N)nc(O)c21 (centres unmarked)	DCPS	substrate, HPLC		concentration not given, 30 min		hydrolysis	26.2 ± 0.4%
Cc1ncsc1-c1ccc(C(C)NC(=O)C2CC(O)CN2C(=O)C(NC(=O)CCCCCCCCCCN2CCCC(Nc3ncc(Cl)c(Nc4ccccc4S(=O)(=O)C(C)C)n3)C2)C(C)(C)C)cc1 (centres unmarked)	22Rv1	RNA-seq, refers to: PTCH1 mRNA		concentration not given	baseline: DMSO	log2 fold change	-1.11
CC(=O)N[C@@H](CCC(C)C)C(=O)N[C@@H](CCC(=O)O)C(=O)N[C@@H](C)C(=O)N[C@@H](CC(=O)O)C(=O)COC(=O)c1c(C)cccc1C	CASP8	enzyme activity, inhibitor				kinact/KI	978000 M⁻¹ s⁻¹
C=C[C@H]1CN([C@@H](C)c2cn(CCCNC(=O)CCc3ccc4n3[B-](F)(F)[N+]3=C(c5ccc[nH]5)C=CC3=C4)nn2)C(=O)[C@@H]2CCC[C@H]1N2S(=O)(=O)c1cc(Cl)cc(Cl)c1	FKBP1A (Homo sapiens, UniProt P62942)	tracer binding, NanoBRET tracer titration	HEK293T transiently expressing FKBP1A			Hill slope	2 ± 0.2
CC(=O)N[C@@H](CC(C)C)C(=O)N[C@@H](CCC(=O)O)C(=O)N[C@H](C(=O)N[C@@H](CC(=O)O)C(=O)COC(=O)c1c(C)cccc1C)[C@@H](C)OCc1ccccc1	CASP8	enzyme activity, inhibitor				kinact/KI	628000 M⁻¹ s⁻¹
CC(C)[C@H](NC(=O)[C@@H](NC(=O)[C@H](Cc1ccccc1)NC(=O)[C@@H](N)CO)[C@@H](C)O)C(=O)N[C@@H](CCCNC(=N)N)C(=O)N[C@@H](C)C(N)=O	Microtubule-associated protein tau, PHF6* peptide (MAPT, Homo sapiens, UniProt P10636)	fibril formation, ThT fluorescence		0.1-fold of peptide, pH 7.4, added: Ac-PHF6* 25 µM, heparin	baseline: untreated	ThT fluorescence	102 ± 2%
CCCCCC=CC=C1C(=O)C=CC1CC=CCCCC(=O)O (centres unmarked)	Exportin-2 (Homo sapiens, UniProt P55060)	competitive isoTOP-ABPP, refers to: CSE1L cysteine peptide	proteome, soluble, MDA-MB-231	100 µM, added: iodoacetamide probe	baseline: DMSO over compound-treated, higher = stronger cysteine blockade	isoTOP-ABPP competition ratio	2.3
CC(=O)N[C@@H](CC(C)C)C(=O)N[C@@H](Cc1ccccc1)C(=O)N[C@@H](CO)C(=O)N[C@@H](CC(=O)O)C(=O)COC(=O)c1c(C)cccc1C	CASP8	enzyme activity, inhibitor				kinact/KI	82000 M⁻¹ s⁻¹
CN1CCCNC(=O)c2cccc(c2)C(=O)NCCCN(C)CCCNc2cccc3c2C(=O)c2cccc(c2C3=O)NCCC1	SAS	RNA-Seq, refers to: BET1 mRNA		1 µM, 6 h	baseline: untreated cells	log2 fold change	-2.08
COC1CN([C@H]2CC[C@H]([C@@]3(C)Oc4c(Cl)cc(C(=O)NCc5c(SC)cc(C)[nH]c5=O)c(C)c4O3)CC2)C1		RNA-seq, refers to: PTPRB	human, whole blood	dose not given, 24 h	baseline: pretreatment baseline	log2 fold change	1.01
C=CC(=O)N1CC2(CCN(c3nc(OC4CCN(CCCOC)CC4)nc4c(OCC(F)(F)F)c(-c5c(C)ccc6[nH]ncc56)c(C5CC5)cc34)CC2)C1	GTPase KRas, GDP-bound (KRAS, Homo sapiens, UniProt P01116, Q61H)	SPR				dissociation rate constant koff	0.0433 ± 0.0006 s⁻¹
C#CCOC(=O)[C@@]1(C)C=C(C(=O)OC(C)(C)C)C(=O)CC1	MAPK8	enzyme activity, D-SENSOR		133.3 µM, mean of replicates		normalized kinase activity	0.459
CNS(=O)(=O)Nc1nccc(Cc2c(C)c3ccc(Oc4ncccc4F)cc3oc2=O)c1F	HT115	cell viability		7 days		IC50	0.625 µM
CC(=O)N[C@@H](CC(=O)O)C(=O)N[C@@H](CO)C(=O)N[C@@H](C)C(=O)N[C@@H](CC(=O)O)C(=O)COC(=O)c1c(C)cccc1C	CASP8	enzyme activity, inhibitor				kinact/KI	84000 M⁻¹ s⁻¹
CCCC[C@H](NC(=O)CCCCCCCNC(=O)CN1CCN(CC(=O)O)CCN(CC(=O)O)CC1)C(=O)N[C@H]1CC(=O)NCCCC[C@@H](C(N)=O)NC(=O)[C@H](Cc2c[nH]c3ccccc23)NC(=O)[C@H](CCCNC(=N)N)NC(=O)[C@@H](Cc2ccccc2)NC(=O)[C@H](Cc2c[nH]cn2)NC1=O [technetium-99m labelled]			C57 mouse, kidneys	intravenous, 0.037 MBq, 24 h		tissue uptake	0.07 ± 0.1 %ID/g
C/C(=C/CC[C@@H](C)[C@H]1CC[C@@]2(C)C3=CC[C@H]4C(C)(C)C(=O)CC[C@]4(C)C3=C[C@@H](O[C@@H]3O[C@H](CO)[C@@H](O)[C@H](O)[C@H]3O)[C@]12C)C(=O)O	TAS2R14 (Homo sapiens, UniProt Q9NYV8)	agonist, calcium mobilisation	HEK cells with Galpha16gust44	pH 7.4		threshold concentration	1 µM
C=C1C(=O)C2(C(=O)N3CCN(c4ccccc4)CC3)CC(=O)CC1C2 (racemic)	PTPN11	enzyme activity, covalent inhibitor		added: pNPP substrate		kinact/KI	39.6 M⁻¹ s⁻¹

Compound	tested on	assay	test system	conditions	how to read	measurement	value
N[C@H]1CC[C@H](Nc2nccc(-c3cccnc3Oc3ccc(NC(=O)NC4CC4)c4ccccc34)n2)CC1	PARP1 (Homo sapiens, UniProt P09874)	kinobead competition pulldown	HEK293/HCT116 lysate mixture	10 µM, 1 h, 4 °C	lower = stronger competition	log2 LFQ intensity	23.3 and 23.4 and 23.7 and 23.8
CC[C@H](C)[C@H](NC(=O)[C@@H](NC(=O)[C@@H](NC(=O)[C@@H](NC(=O)[C@@H](N)CCCCN)C(C)C)C(C)C)C(C)C)C(=O)N[C@H](C(N)=O)[C@@H](C)O	MAPT (Homo sapiens, UniProt P10636)	fibril formation, ThT fluorescence		0.1-fold of tau, 37 °C, added: wild-type tau 10 µM, heparin	baseline: untreated	aggregation half-time	69 ± 10%
Cc1cc(=O)oc2c(F)c(OP(=O)(O)O)c(F)cc12	PTPN11	dephosphorylation, substrate		basal enzyme		kcat	70 ± 0.8 s⁻¹
CCCCCCCO[C@H]1O[C@H](CO)[C@@H](O)[C@H](O)[C@@H]1O	Type 1 fimbrin D-mannose specific adhesin, lectin domain (fimH, Escherichia coli K-12, UniProt P08191)	binding, isothermal titration calorimetry		15 °C, global fit of two titrations		ΔG	-42.4 kJ/mol
CC(=O)N1c2ccc(-c3ccc(CNC(=O)c4cn5cc(-c6cnc(N)nc6)nc(N6CCOCC6)c5n4)cc3)cc2CC[C@@H]1C	BRD7 (Homo sapiens, UniProt Q9NPI1)	binding, competition with immobilised ligand		10 µM		remaining binding	95%
CC(C=CC=C(C)C=CC1=C(C)CCCC1(C)C)=CC=O	Rhodopsin (RHO, Homo sapiens, UniProt P08100, T17M)	ER retention, immunostaining co-localization, refers to: opsin with calnexin	COS-7 transfected T17M	30.00 µM		Pearson correlation coefficient	0.44
C[n+]1cn(C2OC(COP(=O)(O)OP(=O)([O-])C(Cl)(Cl)P(=O)(O)O)C(O)C2O)c2nc(N)nc(O)c21 (centres unmarked)	DCPS	substrate, HPLC		concentration not given, 120 min		hydrolysis	1.7 ± 0.7%
CSCC[C@@H]1NC(=O)[C@H](C(C)C)NC(=O)[C@H](CCCNC(=N)N)NC(=O)[C@@H]2CCCN2C(=O)CNC(=O)[C@@H](NC(=O)CNC(=O)[C@H](CO)NC(=O)CNC(=O)[C@H](CO)NC(=O)CCCC[C@@H]2SC[C@@H]3NC(=O)N[C@@H]32)CSSC[C@@H](C(N)=O)NC(=O)[C@@H]2CCCN2C(=O)CNC(=O)[C@H](CCC(=O)O)NC(=O)[C@H](CC(=O)O)NC(=O)[C@H](CC(=O)O)NC(=O)CNC(=O)[C@H](CC(C)C)NC(=O)[C@H](Cc2c[nH]cn2)NC(=O)[C@H](CC(C)C)NC(=O)CNC(=O)[C@H](Cc2c[nH]cn2)NC1=O	Col1a1/Col1a2 (Rattus norvegicus, UniProt P02454+P02466)	binding, bio-layer interferometry	biotinylated peptide on streptavidin biosensor	added: collagen 0 to 8 µM		koff	0.0068 s⁻¹
CC[C@H](C)[C@H](NC(C)=O)C(=O)N[C@@H](CCC(=O)O)C(=O)N[C@H](C(=O)N[C@@H](CC(=O)O)C(=O)COC(=O)c1c(C)cccc1C)[C@@H](C)O	Caspase-10 (CASP10, Homo sapiens, UniProt Q92851)	enzyme activity, inhibitor				kinact/KI	255000 M⁻¹ s⁻¹
C[Si](C)(C)C[C@@H](CN)CC(=O)O	GALR2 (Homo sapiens, UniProt O43603)	enzyme activity, inhibitor		75 µM		inhibition	-10%
Nc1ncc(-c2cc(-c3cnn(CC(F)(F)F)c3)ncc2F)nc1C(=O)NC1CNCC(F)C1 (centres unmarked)	NEK3	KINOMEscan		1 µM	baseline: DMSO control	remaining binding	100%
CC(=O)N[C@@H](C(=O)N[C@@H](CCCC(=O)O)C(=O)N[C@@H](CCC1CCCCC1)C(=O)N[C@@H](CC(=O)O)C(=O)COC(=O)c1c(C)cccc1C)C1CCCCC1	CASP8	enzyme activity, inhibitor				kinact/KI	966000 M⁻¹ s⁻¹
COC(=O)[C@]1(C(C)C)C=C(C(=O)Nc2cccc(C(=O)Nc3ccc(Nc4nccc(-c5cccnc5)n4)c(C)c3)c2)C(=O)CC1	MAPK8	SPR two-step binding model		reversible bond formation		ΔΔG bond formation contribution	-7.87 kJ/mol
Cc1cc2oc(=O)cc(Cn3ccnc3)c2cc1C	ADRA1A (Homo sapiens, UniProt P35348)	intracellular Ca2+ mobilization, agonist	COS-7	500 µM	baseline: 3 µM ionomycin	agonist activity	1.69 ± 0.3%
CC(C)=CC1OC(C)(C)C2C=C3C(=O)C(Cl)=CC(O)C3C3C(O)C4OC4C(=O)C132 (centres unmarked)	Tyrosine-protein kinase ABL1, non-phosphorylated (ABL1, Homo sapiens, UniProt P00519, Q252H)	cell-free assay, competition with immobilised ligand		10 µM		remaining binding	60%
Cc1cc(=O)oc2cc(NC(=O)CCCCCCC(=O)NO)ccc12	HDAC8 (Homo sapiens, UniProt Q9BY41)	ITC	Hepes buffer	concentration not given, pH 7.5		binding stoichiometry	0.9
N#CN1CC[C@H](C(=O)Nc2nc3c(s2)CN(C(=O)Cn2cc(CNC(=O)CCCC[C@@H]4SC[C@@H]5NC(=O)N[C@@H]54)nn2)CC3)C1	USP15 (Homo sapiens, UniProt Q9Y4E8)	probe binding, affinity probe, neutravidin pull-down LC-MS/MS	HEK293T, cell lysate	5 µM, 1 h, mean of three replicates, unit not given	higher = more pulled down	iBAQ abundance	3.65e+06

Some of these lines once more:
Compound	tested on	assay	test system	conditions	how to read	measurement	value
COC1CN([C@H]2CC[C@H]([C@@]3(C)Oc4c(Cl)cc(C(=O)NCc5c(SC)cc(C)[nH]c5=O)c(C)c4O3)CC2)C1		RNA-seq, refers to: PTPRB	human, whole blood	dose not given, 24 h	baseline: pretreatment baseline	log2 fold change	1.01
C=CC(=O)N1CC2(CCN(c3nc(OC4CCN(CCCOC)CC4)nc4c(OCC(F)(F)F)c(-c5c(C)ccc6[nH]ncc56)c(C5CC5)cc34)CC2)C1	GTPase KRas, GDP-bound (KRAS, Homo sapiens, UniProt P01116, Q61H)	SPR				dissociation rate constant koff	0.0433 ± 0.0006 s⁻¹
C#CCOC(=O)[C@@]1(C)C=C(C(=O)OC(C)(C)C)C(=O)CC1	MAPK8	enzyme activity, D-SENSOR		133.3 µM, mean of replicates		normalized kinase activity	0.459
CNS(=O)(=O)Nc1nccc(Cc2c(C)c3ccc(Oc4ncccc4F)cc3oc2=O)c1F	HT115	cell viability		7 days		IC50	0.625 µM
CC(=O)N[C@@H](CC(=O)O)C(=O)N[C@@H](CO)C(=O)N[C@@H](C)C(=O)N[C@@H](CC(=O)O)C(=O)COC(=O)c1c(C)cccc1C	CASP8	enzyme activity, inhibitor				kinact/KI	84000 M⁻¹ s⁻¹
CCCC[C@H](NC(=O)CCCCCCCNC(=O)CN1CCN(CC(=O)O)CCN(CC(=O)O)CC1)C(=O)N[C@H]1CC(=O)NCCCC[C@@H](C(N)=O)NC(=O)[C@H](Cc2c[nH]c3ccccc23)NC(=O)[C@H](CCCNC(=N)N)NC(=O)[C@@H](Cc2ccccc2)NC(=O)[C@H](Cc2c[nH]cn2)NC1=O [technetium-99m labelled]			C57 mouse, kidneys	intravenous, 0.037 MBq, 24 h		tissue uptake	0.07 ± 0.1 %ID/g
